{"data": "Published values gathered from unrelated publications", "BCHE": "Cholinesterase (BCHE, Homo sapiens, UniProt P06276)", "note": "Protocols differ between the studies behind these lines. Values joined by “and” are separate records of one study, mostly repeats; a detail may differ. ± gives the spread as reported.", "UniProt P06276, sequence (whole entry, looked up)": "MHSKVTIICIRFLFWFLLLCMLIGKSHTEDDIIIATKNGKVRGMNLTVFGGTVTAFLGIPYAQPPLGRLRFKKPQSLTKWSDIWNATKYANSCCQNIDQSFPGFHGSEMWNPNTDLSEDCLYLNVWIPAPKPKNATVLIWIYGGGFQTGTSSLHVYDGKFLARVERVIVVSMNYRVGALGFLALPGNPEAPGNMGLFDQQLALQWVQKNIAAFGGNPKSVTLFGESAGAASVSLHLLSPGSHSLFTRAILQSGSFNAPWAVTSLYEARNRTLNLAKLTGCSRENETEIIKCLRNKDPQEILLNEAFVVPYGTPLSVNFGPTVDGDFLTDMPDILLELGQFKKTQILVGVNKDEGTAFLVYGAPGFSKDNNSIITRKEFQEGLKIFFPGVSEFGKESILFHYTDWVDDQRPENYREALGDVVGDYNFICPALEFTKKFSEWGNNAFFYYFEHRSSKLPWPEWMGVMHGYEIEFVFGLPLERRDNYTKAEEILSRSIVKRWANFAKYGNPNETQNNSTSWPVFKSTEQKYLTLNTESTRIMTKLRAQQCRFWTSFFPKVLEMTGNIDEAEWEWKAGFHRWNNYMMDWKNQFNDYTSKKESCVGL"}
{"Structure (SMILES)": "CNC(=O)CC1C(=O)N(C2CCN(C3CCC(C(C)C)CC3)CC2)c2ccccc21 (stereo not shown)", "system": "conscious Sprague-Dawley rat", "conditions": "intravenous bolus, 100 nmol/kg", "quantity": "persistence of sedation", "result": "~30 min"}
{"Structure (SMILES)": "C[C@@H](NC(=O)N1C(=O)[C@H](Cc2ccnc(N)c2)[C@H]1C(=O)O)C1CCCCC1", "system": "healthy adult Chinese volunteers", "conditions": "continuous intravenous infusion, 1.0 mg/kg/h, 5-day infusion, CTCAE 5.0 grading", "quantity": "incidence of decreased hemoglobin", "result": "12.5%"}
{"Structure (SMILES)": "Clc1ccc(Cl)c(-c2cc(Cl)c(Cl)cc2Cl)c1", "system": "PDMS-water partitioning", "conditions": "PCB compilation", "scale": "baseline: maximum over minimum K", "quantity": "literature range factor", "result": 1.4}
{"Structure (SMILES)": "COc1ccc2c(c1)CN(C(=O)CCN1CCC(Cc3ccccc3)CC1)CC[S@@+]2[O-]", "system": "female Beagle dogs, chronic AV block, plasma", "conditions": "intravenous, 1 mg/kg, end of 10 min infusion", "quantity": "plasma concentration", "result": "829 ± 289 ng/mL"}
{"Structure (SMILES)": "Nc1nccc2c1ncn2[C@@H]1O[C@H](CO)[C@@H](O)[C@H]1O", "tested on": "Plasmodium falciparum", "system": "3D7", "quantity": "IC50", "result": "5.01 µM"}
{"Structure (SMILES)": "O=C1Nc2cc3[nH]nc(-c4ccncc4)c3cc2CN1Cc1ccccc1", "test": "CTCAE v4.03", "system": "advanced solid tumour patients", "conditions": "intravenous, 7.2 mg/kg, schedules 1/2", "quantity": "patients with back pain", "result": "0%"}
{"Structure (SMILES)": "Clc1ccc(-c2ccccc2)cc1", "system": "Sprague-Dawley rats, female, serum", "conditions": "inhalation, 23 µg/rat, 4 h after exposure", "quantity": "glucose", "result": "246 ± 44 mg/dL"}
{"Structure (SMILES)": "CCOc1cc(Oc2ccc(C(F)(F)F)cc2Cl)ccc1[N+](=O)[O-]", "system": "rat, male", "conditions": "250 mg/kg, 4 days", "quantity": "final body weight", "result": "91 ± 4.1 g"}
{"Structure (SMILES)": "NC(=O)[C@H]1CCN(c2ncnc(N)c2F)C[C@@H]1N1CCC[C@@H](Nc2cc(Cl)cc(C(F)(F)F)c2)C1=O", "system": "B-cell malignancy patients", "conditions": "oral, 20.5 mg twice daily, dose", "quantity": "grade ≥3 platelet decrease", "result": "33%"}
{"Structure (SMILES)": "CCCN(CCc1ccsc1)C1CCc2c(O)cccc2C1 (stereo not shown)", "tested on": "BCHE", "test": "inhibitor", "quantity": "IC50", "result": "4.01 ± 0.27 µM"}
{"Structure (SMILES)": "CC(C)[C@H](O)C(=O)N[C@H]1Cc2ccc3c(c2)[C@]2(C4=C(c5nc(CO)co5)N=C(O4)[C@H](C(C)(C)C)NC1=O)c1cc(F)ccc1N[C@@H]2O3", "system": "NSG mice, lung", "conditions": "intravenous, 10 mg/kg, single dose at MTD, together with: paclitaxel 40 mg/kg", "quantity": "terminal half-life", "result": "7 h"}
{"Structure (SMILES)": "Clc1ccc(-c2ccc(Cl)c(Cl)c2)cc1Cl", "system": "fresh water", "conditions": "20 °C, S100 sampler, 100 µm", "quantity": "log K(PDMS-water)", "result": "5.52 ± 0.03"}
{"Structure (SMILES)": "CC1(C(=O)O)C2CCC(O2)C1(C)C(=O)O (stereo not shown)", "tested on": "Plasmodium falciparum", "system": "3D7", "quantity": "IC50", "result": "2 µM"}
{"Structure (SMILES)": "c1cc2ccc3cccc4ccc(c1)c2c34", "system": "PDMS-water partitioning", "conditions": "PAH compilation", "scale": "baseline: maximum over minimum K", "quantity": "literature range factor", "result": 3}
{"Structure (SMILES)": "CC(C)CC(=O)OC[C@H]1O[C@@](C#N)(c2ccc3c(N)ncnn23)[C@H](O)[C@@H]1O", "system": "monkey plasma", "conditions": "0.9-90 µM", "quantity": "unbound fraction in plasma", "result": 0.711}
{"Structure (SMILES)": "COc1ccc(C[C@@H]2NC(=O)[C@H]([C@@H](C)O)NC(=O)[C@@H]3[C@@H]4CCN3C(=O)[C@@H]3Cc5cn(c6ccc(F)cc56)CCCCCCN(Cc5ccc(cc5)CCNC(=O)[C@]5(C)CCCN5C2=O)C(=O)CCC(=O)N[C@@H](C)C(=O)N[C@H](CNC(=O)CCCCC[N+](C)(C)C)C(=O)N[C@@H](Cc2cccc(c2)CNC(=O)CO4)C(=O)N3)cc1", "test": "item: dry mouth", "system": "human", "conditions": "dose not given", "quantity": "participants with adverse event", "result": "6.5%"}
{"Structure (SMILES)": "CN1CC[C@@H](c2c(O)cc(O)c3c(=O)cc(-c4ccc(C(F)(F)F)cc4Cl)oc23)[C@@H]1CO", "test": "item: Constipation", "system": "relapsed or refractory haematological malignancies", "conditions": "oral, dose not given, all arms", "quantity": "patients with adverse event", "result": "17.5%"}
{"Structure (SMILES)": "CN1CCN(c2ccc(Nc3nccc(-c4cccnc4)n3)cc2C(F)(F)F)CC1", "system": "zebrafish embryos", "conditions": "25 µM, 5 d", "quantity": "toxicity", "result": "33 ± 11%"}
{"Structure (SMILES)": "CCc1ccc(CC/C=C/c2ccc3c(c2)C(=O)CC3)cc1", "system": "Sprague-Dawley rat, female", "conditions": "oral, 30 mg/kg/day, 14 days", "quantity": "Glucose", "result": "6.22 mM"}
{"Structure (SMILES)": "O=S(=O)(Nc1ccccc1)c1ccc(NC(=S)Nc2ccccc2)cc1", "system": "mouse, male, large intestine", "conditions": "oral, 80 mg/kg daily, 14 days", "scale": "baseline: body weight", "quantity": "relative organ weight", "result": "0.77%"}
{"Structure (SMILES)": "CC(C)C[C@@H]1NC(=O)CNC(=O)[C@H](CC(N)=O)NC(=O)[C@H](CCCNC(=N)N)NC(=O)[C@H]([C@@H](C)O)NC(=O)[C@@H]2CSSC[C@@H]3NC(=O)[C@H]([C@@H](C)O)NC(=O)CNC(=O)CNC(=O)[C@H](C(C)C)NC(=O)[C@@H]4CSSC[C@H](NC(=O)[C@H]([C@@H](C)O)NC(=O)[C@H](CSSC[C@H](NC(=O)[C@H](C(C)C)NC(=O)[C@@H]5CCCN5C1=O)C(=O)NCC(=O)N[C@@H](CCCCN)C(=O)N[C@@H]([C@@H](C)O)C(=O)N4)NC(=O)CNC(=O)[C@@H]1CCCN1C(=O)[C@H]([C@@H](C)O)NC(=O)[C@H](CC(N)=O)NC3=O)C(=O)N[C@@H](CO)C(=O)N[C@@H](Cc1c[nH]c3ccccc13)C(=O)N1CCC[C@H]1C(=O)N[C@@H](C(C)C)C(=O)N2", "test": "HPLC", "system": "ammonium bicarbonate", "conditions": "180 µM, 14 days, pH 9.0, 25 °C, deamidation stability", "quantity": "remaining peptide", "result": "63.9 ± 0.5%"}
{"Structure (SMILES)": "CC(C)C[C@H](NC(=O)[C@H](CCCCN)NC(=O)OCC1c2ccccc2-c2ccccc21)C(=O)N[C@H](C(=O)N[C@@H](Cc1ccccc1)C(=O)N[C@@H](Cc1ccccc1)C(=O)N[C@@H](CCCCN)C(=O)NCC(=O)N[C@@H](Cc1ccccc1)C(=O)N[C@@H](C)C(=O)N[C@@H](Cc1c[nH]c2ccccc12)C(=O)N[C@@H](CC(N)=O)C(=O)N[C@H](C(=O)N[C@H]1CSSC[C@@H](C(=O)N[C@@H](Cc2c[nH]cn2)C(=O)N[C@@H](CCCNC(=N)N)C(=O)N[C@@H](CCCNC(=N)N)C(=O)N[C@@H](C)C(=O)N[C@@H](CC(N)=O)C(N)=O)NC(=O)[C@H](C(C)C)NC(=O)[C@H](CCCNC(=N)N)NC(=O)[C@H](C(C)C)NC(=O)CNC(=O)[C@H](CC(N)=O)NC(=O)[C@H](CCCNC(=N)N)NC(=O)[C@H](Cc2ccc(O)cc2)NC(=O)[C@H](C(C)C)NC1=O)C(C)C)C(C)C", "system": "ICR mice, serum", "conditions": "intraperitoneal, 5 mg/kg, day 5", "quantity": "creatinine", "result": "85.8 ± 3.48 µmol/L"}
{"Structure (SMILES)": "COc1cccc2c1CCCC2CCCN1CCN(C2CCCCC2)CC1 (stereo not shown)", "system": "CD-1 mouse, male, plasma", "conditions": "intraperitoneal, 10 mg/kg", "quantity": "Tmax", "result": "0.25 h"}
{"Structure (SMILES)": "CC[C@H](C)[C@H](NC(=O)[C@H](Cc1ccccc1)NC(=O)[C@H](CCC(=O)O)NC(=O)[C@H](CCCNC(=N)N)NC(=O)[C@H](C)NC(=O)[C@H](C)NC(=O)[C@H](CCC(N)=O)NC(=O)[C@H](CCC(=O)O)NC(=O)[C@H](CCC(=O)O)NC(=O)[C@H](CC(C)C)NC(=O)[C@H](Cc1ccc(O)cc1)NC(=O)[C@H](CO)NC(=O)[C@H](CO)NC(=O)[C@@H](NC(=O)[C@H](CC(=O)O)NC(=O)[C@H](CO)NC(=O)[C@@H](NC(=O)[C@H](Cc1ccccc1)NC(=O)[C@@H](NC(=O)CNC(=O)[C@H](CCC(=O)O)NC(=O)[C@H](C)NC(=O)CCc1cnc[nH]1)[C@@H](C)O)[C@@H](C)O)C(C)C)C(=O)N[C@@H](C)C(=O)N[C@@H](Cc1c[nH]c2ccccc12)C(=O)N[C@@H](CC(C)C)C(=O)N[C@H](C(=O)N[C@@H](CCCNC(=N)N)C(=O)NCC(=O)N[C@@H](CCCNC(=N)N)C(=O)N[C@@H](CCCCNC(=O)COCCOCCNC(=O)COCCOCCNC(=O)CC[C@H](NC(=O)CCCCCCCCCCCCCCCCC(=O)O)C(=O)O)C(=O)NCC(=O)NCC(=O)N[C@@H](CO)C(=O)N[C@@H](CCCCNC(=O)[C@H](CCCCNc1c(NCCCCCN(O)C(=O)CCC(=O)NCCCCCN(O)C(=O)CCC(=O)NCCCCCN(O)C(C)=O)c(=O)c1=O)Nc1c(NCCCCCN(O)C(=O)CCC(=O)NCCCCCN(O)C(=O)CCC(=O)NCCCCCN(O)C(C)=O)c(=O)c1=O)C(=O)O)C(C)C [zirconium-89 labelled]", "test": "ex vivo gamma counting", "system": "Sprague-Dawley rat, male, duodenum", "conditions": "intravenous, 1 nmol, 24 h", "quantity": "tissue uptake", "result": "0.196 %ID/g and 0.188 %ID/g and 0.193 %ID/g and 0.218 %ID/g and 0.192 %ID/g"}
{"Structure (SMILES)": "CN(C(=O)n1cnc(-c2ccc[n+]([O-])c2)c1)C1CCCCC1", "system": "Wistar rat, pons", "conditions": "oral, 10 mg/kg, 4 h, single dose", "quantity": "concentration", "result": "122 ± 34.9 ng/g"}
{"Structure (SMILES)": "CO[C@H]1C[C@@H]2CC[C@@H](C)[C@@](O)(O2)C(=O)C(=O)N2CCCC[C@H]2C(=O)O[C@H]([C@H](C)C[C@@H]2CC[C@@H](OC(=O)NCCOCCOCCOCCOCCOCCOCCOCCOCCC(=O)N3CCc4cc(Cn5nc(-c6ccc7oc(N)nc7c6)c6c(N)ncnc65)ccc4C3)[C@H](OC)C2)C[C@@H](O)[C@H](C)/C=C(\\C)[C@@H](O)[C@@H](OC)C(=O)[C@H](C)C[C@H](C)/C=C/C=C/C=C/1C", "test": "dose-escalation trial", "system": "patients with advanced solid tumours", "conditions": "intravenous, 1.6 mg/3 mg weekly, any grade", "quantity": "decreased appetite TEAE incidence", "result": "60%"}
{"Structure (SMILES)": "CN[C@H]1CC[C@@H](c2ccc(Cl)c(Cl)c2)c2ccccc21", "system": "CD-1 mouse, male, lung", "conditions": "intraperitoneal, 1 mg/kg", "quantity": "elimination rate constant", "result": "5.78e-05 s⁻¹"}
{"Structure (SMILES)": "COc1ccnc(C(=O)N[C@H]2COC(=O)[C@H](Cc3ccccc3)[C@@H](OC(=O)C(C)C)[C@H](C)OC2=O)c1OCOC(=O)C(C)C", "system": "silt loam soil", "conditions": "organic carbon 1.0 %, pH 5.5", "quantity": "organic carbon-normalised Kf (KFoc)", "result": "936 mL/g"}
{"Structure (SMILES)": "O=C(Nc1ccccc1)C1CCN(C(=O)Oc2cccnc2)CC1", "test": "adverse event reporting", "system": "healthy women", "conditions": "oral, 100 mg, 9 days", "quantity": "subjects with decreased appetite", "result": "15.4%"}
{"Structure (SMILES)": "O=C(CN1C2=NCCN2c2ccccc21)c1ccc(-c2ccccc2)cc1", "tested on": "BCHE", "test": "inhibitor, fluorometric", "quantity": "IC50", "result": "9.8 ± 1.83 µM"}
{"Structure (SMILES)": "COc1cc2c(Oc3ccc4[nH]c(C)cc4c3F)ccnc2cc1OCC1(N)CC1", "system": "paediatric recurrent refractory sarcoma", "conditions": "10 mg", "quantity": "Nausea incidence", "result": "0%"}
{"note": "For quick reference, copied from above:"}
{"Structure (SMILES)": "O=C1Nc2cc3[nH]nc(-c4ccncc4)c3cc2CN1Cc1ccccc1", "test": "CTCAE v4.03", "system": "advanced solid tumour patients", "conditions": "intravenous, 7.2 mg/kg, schedules 1/2", "quantity": "patients with back pain", "result": "0%"}
{"Structure (SMILES)": "Clc1ccc(-c2ccccc2)cc1", "system": "Sprague-Dawley rats, female, serum", "conditions": "inhalation, 23 µg/rat, 4 h after exposure", "quantity": "glucose", "result": "246 ± 44 mg/dL"}
